Published values gathered from unrelated publications.
Compare with care: the assays were run in different laboratories. Numbers after ± are the reported error.
B1: CRYBB1 1-148 (Homo sapiens, UniProt P53674); sequence looked up; chain MSQAAKASASATVAVNPGPDTKGKGAPPAGTSPSPGTTLAPTTVPITSAKAAELPPGNYRLVVFELENFQGRRAEFSGECSNLADRGFDRVRSIIVSAGPWVAFEQSNFRGEMFILEKGEYPRWNTWSSSYRSDRLMSFRPIKMDAQE
B2: Tbx1 (Mus musculus, UniProt P70323); sequence looked up; chain MHFSTVTRDMEAFAASSLSGLGSPSPGADPFGPREPPPPRYDPCAAVPGAPGPPPPRAYPFAPAPGAAGSSAAESEGPGASRAAAVKAPVKKNPKVASVSVQLEMKALWDEFNQLGTEMIVTKAGRRMFPTFQVKLFGMDPMADYMLLMDFVPVDDKRYRYAFHSSSWLVAGKADPATPGRVHYHPDSPAKGAQWMKQIVSFDKLKLTNNLLDDNGQIILNSMHRYQPRFHVVYVDPRKDSEKYAEENFKTFVFEETRFTAVTAYQNHRITQLKIASNPFAKGFRDCDPEDWPRNHRPGALPLVSAFARSRNPVASPTQPNGSDKDAAEARREFDRDSGPAALGDATHPPQLLARVLSPALPGPGGLVPLPGGSGGRHSPPHADLRLEAPGASEPLHHHPYKYPAAAYDHYLGAKSRPAPYPLPGLRGHGYHPHAHPHAHPHHHHHPAVNPAAAAAAAAAANVYSSAAAPPGAYDYCPR
B3: MIF4GD (Homo sapiens, UniProt A9UHW6); sequence looked up; chain MGEPSREEYKIQSFDAETQQLLKTALKDPGAVDLEKVANVIVDHSLQDCVFSKEAGRMCYAIIQAESKQAGQSVFRRGLLNRLQQEYQAREQLRARSLQGWVCYVTFICNIFDYLRVNNMPMMALVNPVYDCLFRLAQPDSLSKEEEVDCLVLQLHRVGEQLEKMNGQRMDELFVLIRDGFLLPTGLSSLAQLLLLEIIEFRAAGWKTTPAAHKYYYSEVSD
B4: LEMD3 755-911 (Homo sapiens, UniProt Q9Y2U8); sequence looked up; chain DKILVIPSKVWQGQAFHLDRRNSPPNSLTPCLKIRNMFDPVMEIGDQWHLAIQEAILEKCSDNDGIVHIAVDKNSREGCVYVKCLSPEYAGKAFKALHGSWFDGKLVTVKYLRLDRYHHRFPQALTSNTPLKPSNKHMNSMSHLRLRTGLTNSQGSS
B5: Kcnt2 Q276E/Y279E (Rattus norvegicus, UniProt Q6UVM4); chain MVDLESEVPPLPPRYRFRDLLLGDQGWQNDDRVQVEFYMNENTFKERLKLFFIKNQRSSLRIRLFNFSLKLLSCLLYIIRVLLEKPSQGNDWSHIFWVNRSLPLWGLQVSVALISLFETILLGYLSYKGNIWEQILRVPFILEIINAVPFIISIFWPTLRNLFVPVFLNCWLAKHALENMINDLHRAIQRTQSAMFNQVLILISTLLCLIFTCICGIQHLERIGKKLNLFDSLYFCIVTFSTVGFGDVTPETWSSKLFVVAMICVALVVLPIQFEELAELWMERQKSGGNYSRHRAQTEKHVVLCVSSLKIDLLMDFLNEFYAHPRLQDYYVVILCPTEMDVQVRRVLQIPMWSQRVIYLQGSALKDQDLLRAKMDNAEACFILSSRCEVDRTSSDHQTILRAWAVKDFAPNCPLYVQILKPENKFHIKFADHVVCEEEFKYAMLALNCICPATSTLITLLVHTSRGQCVCLCCREGQQSPEQWQKTYGRCSGNEVYHIVLEESTFFAEYEGKSFTYASFHAHKKFGVCLVGVRREDNKNILLNPGPRYIMNASDICFYINITKEENSAFKNQDQQRKSNVSRSFYHGPSRLPVHSIIASMGTVAIDLQDTSCRAASGPTLALPSEGGKELRRPSIAPVLEVADTSSIQTCDLLSDQSEDETTPDEETSSNLEYAKGYPPYSPYIGSSPTFCHLLQEKVPFCCLRLDKSCQHNYYEDAKAYGFKNKLIIVAAETAGNGLYNFIVPLRAYYRPKKELNPIVLLLDNPPDMHFLDAICWFPMVYYMVGSIDNLDDLLRCGVTFAANMVVVDKESTMSAEEDYMADAKTIVNVQTLFRLFSSLSIITELTHPANMRFMQFRAKDCYSLALSKLEKKERERGSNLAFMFRLPFAAGRVFSISMLDTLLYQSFVKDYMISITRLLLGLDTIPGSGFLCSMKITEDDLWIRTYARLYQKLCSSTGDVPIGIYRTESQKLTTSESQISISVEEWEDTKDVKDPGHHRSIHRNSTSSDQSDHPLLRRKSMQWARRLSRKGPKHSGKTAEKITQQRLNLYRRSERQELAELVKNRMKHLGLSTVGYDEMNDHQSTLSYILINPSPDTRLELNDVVYLIRPDPLSYLPNSEPSRKNSICNAAVQDSREETQL
B6: CSF1 33-496 (Homo sapiens, UniProt P09603); chain EEVSEYCSHMIGSGHLQSLQRLIDSQMETSCQITFEFVDQEQLKDPVCYLKKAFLLVQDIMEDTMRFRDNTPNAIAIVQLQELSLRLKSCFTKDYEEHDKACVRTFYETPLQLLEKVKNVFNETKNLLDKDWNIFSKNCNNSFAECSSQDVVTKPDCNCLYPKAIPSSDPASVSPHQPLAPSMAPVAGLTWEDSEGTEGSSLLPGEQPLHTVDPGSAKQRPPRSTCQSFEPPETPVVKDSTIGGSPQPRPSVGAFNPGMEDILDSAMGTNWVPEEASGEASEIPVPQGTELSPSRPGGGSMQTEPARPSNFLSASSPLPASAKGQQPADVTGTALPRVGPVRPTGQDWNHTPQKTDHPSALLRDPPEPGSPRISSLRPQGLSNPSTLSAQPQLSRSHSSGSVLPLGELEGRRSTRDRRSPAEPEGGPASEGAARPLPRFNSVPLTDTGHERQSEGSFSPQLQES
B7: Calhm3 (Mus musculus, UniProt J3QMI4); chain MDRFRMLFQHLQSSSESVMNGICLLLAAVTVKIYSSLDFNCPCLERYNALYGLGLLLTPPLALFLCGLLVNRQSVLMVEEWRRPAGHRRKDLGIIRYMCSSVLQRALAAPLVWILLALLDGKCFVCAFSNSVDPEKFLDFANMTPRQVQLFLAKVPCKEDELVKNSPARKAVSRYLRCLSQAIGWSITLLVIVVAFLARCLRPCFDQTVFLQRRYWSNYMDLEQKLFDETCCEHARDFAHRCVLHFFANMQSELRALGLRRDPAGGIPESQESSEPPELREDRDSGNGKAHLRAISSREQVDQLLSTWYSSKPPLDLAASPRRWGPGLNHRAPIAAPGTKLCHQLNV
B8: Plau amino terminal fragment 21-155 (Mus musculus, UniProt P06869); conjugated to PEG iron oxide nanoparticles; sequence looked up; chain GSVLGAPDESNCGCQNGGVCVSYKYFSRIRRCSCPRKFQGEHCEIDASKTCYHGNGDSYRGKANTDTKGRPCLAWNAPAVLQKPYNAHRPDAISLGLGKHNYCRNPDNQKRPWCYVQIGLRQFVQECMVHDCSLS
UniProt P05813, sequence (whole entry, looked up): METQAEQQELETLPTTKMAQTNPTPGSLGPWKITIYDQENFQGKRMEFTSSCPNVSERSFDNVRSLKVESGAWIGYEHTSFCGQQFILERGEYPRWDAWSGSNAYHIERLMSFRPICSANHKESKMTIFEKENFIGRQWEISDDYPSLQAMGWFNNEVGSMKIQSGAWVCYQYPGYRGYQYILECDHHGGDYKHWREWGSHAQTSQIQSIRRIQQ
UniProt P31323, sequence (whole entry, looked up): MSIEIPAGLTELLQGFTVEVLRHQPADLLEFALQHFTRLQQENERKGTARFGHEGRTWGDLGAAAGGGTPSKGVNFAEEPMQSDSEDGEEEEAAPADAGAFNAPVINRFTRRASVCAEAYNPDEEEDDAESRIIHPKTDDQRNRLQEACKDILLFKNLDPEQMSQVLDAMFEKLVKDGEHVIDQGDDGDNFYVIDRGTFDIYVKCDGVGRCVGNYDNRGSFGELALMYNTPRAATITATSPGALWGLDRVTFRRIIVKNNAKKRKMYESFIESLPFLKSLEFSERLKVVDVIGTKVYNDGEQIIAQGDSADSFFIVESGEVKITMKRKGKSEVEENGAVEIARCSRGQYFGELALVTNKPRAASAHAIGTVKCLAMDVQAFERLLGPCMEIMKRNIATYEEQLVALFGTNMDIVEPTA
UniProt Q08378, sequence (whole entry, looked up): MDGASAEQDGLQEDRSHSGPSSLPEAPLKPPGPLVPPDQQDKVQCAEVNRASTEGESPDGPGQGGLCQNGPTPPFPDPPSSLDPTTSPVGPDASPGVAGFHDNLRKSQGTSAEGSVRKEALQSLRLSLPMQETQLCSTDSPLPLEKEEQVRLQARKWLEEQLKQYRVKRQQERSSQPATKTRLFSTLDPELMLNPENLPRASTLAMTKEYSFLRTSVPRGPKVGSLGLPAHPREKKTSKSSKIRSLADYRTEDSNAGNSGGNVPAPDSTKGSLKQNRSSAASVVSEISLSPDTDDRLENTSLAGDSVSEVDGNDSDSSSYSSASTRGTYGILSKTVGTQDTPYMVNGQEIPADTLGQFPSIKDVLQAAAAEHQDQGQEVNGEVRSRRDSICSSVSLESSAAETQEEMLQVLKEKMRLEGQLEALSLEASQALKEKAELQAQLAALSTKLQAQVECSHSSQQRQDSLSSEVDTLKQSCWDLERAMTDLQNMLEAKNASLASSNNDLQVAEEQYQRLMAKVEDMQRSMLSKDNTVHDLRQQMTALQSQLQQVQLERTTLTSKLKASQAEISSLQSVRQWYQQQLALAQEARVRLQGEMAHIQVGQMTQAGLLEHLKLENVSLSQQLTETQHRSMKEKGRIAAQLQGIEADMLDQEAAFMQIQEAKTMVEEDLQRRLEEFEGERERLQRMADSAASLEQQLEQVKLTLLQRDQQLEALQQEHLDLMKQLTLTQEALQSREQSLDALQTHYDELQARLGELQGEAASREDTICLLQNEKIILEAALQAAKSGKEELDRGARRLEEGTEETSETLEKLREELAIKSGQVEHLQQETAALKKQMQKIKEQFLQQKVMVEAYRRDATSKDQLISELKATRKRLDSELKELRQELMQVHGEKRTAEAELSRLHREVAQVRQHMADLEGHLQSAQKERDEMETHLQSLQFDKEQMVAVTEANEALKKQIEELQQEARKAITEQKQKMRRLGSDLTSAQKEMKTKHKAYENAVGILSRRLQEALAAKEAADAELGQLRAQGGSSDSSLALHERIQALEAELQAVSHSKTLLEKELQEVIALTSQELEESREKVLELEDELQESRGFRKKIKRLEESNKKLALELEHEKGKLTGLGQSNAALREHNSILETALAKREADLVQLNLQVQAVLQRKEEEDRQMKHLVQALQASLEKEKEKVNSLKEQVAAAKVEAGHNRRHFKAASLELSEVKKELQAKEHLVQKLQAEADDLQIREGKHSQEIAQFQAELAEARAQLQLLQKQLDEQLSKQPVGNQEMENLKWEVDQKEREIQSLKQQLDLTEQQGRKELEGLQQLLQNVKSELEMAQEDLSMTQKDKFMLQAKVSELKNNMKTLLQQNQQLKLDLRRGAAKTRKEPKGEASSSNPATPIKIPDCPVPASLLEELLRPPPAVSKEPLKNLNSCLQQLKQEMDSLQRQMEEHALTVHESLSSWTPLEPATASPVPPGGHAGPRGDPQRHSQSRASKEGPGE
UniProt P35456, sequence (whole entry, looked up): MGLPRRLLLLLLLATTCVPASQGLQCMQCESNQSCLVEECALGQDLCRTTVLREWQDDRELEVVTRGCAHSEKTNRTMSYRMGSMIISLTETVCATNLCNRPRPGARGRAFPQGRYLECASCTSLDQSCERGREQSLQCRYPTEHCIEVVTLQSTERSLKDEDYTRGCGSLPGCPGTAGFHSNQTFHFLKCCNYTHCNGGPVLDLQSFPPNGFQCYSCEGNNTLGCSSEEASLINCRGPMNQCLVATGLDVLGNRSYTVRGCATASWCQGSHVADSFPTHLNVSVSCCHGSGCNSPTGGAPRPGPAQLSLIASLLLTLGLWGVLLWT
UniProt P04775, sequence (whole entry, unmodified, looked up): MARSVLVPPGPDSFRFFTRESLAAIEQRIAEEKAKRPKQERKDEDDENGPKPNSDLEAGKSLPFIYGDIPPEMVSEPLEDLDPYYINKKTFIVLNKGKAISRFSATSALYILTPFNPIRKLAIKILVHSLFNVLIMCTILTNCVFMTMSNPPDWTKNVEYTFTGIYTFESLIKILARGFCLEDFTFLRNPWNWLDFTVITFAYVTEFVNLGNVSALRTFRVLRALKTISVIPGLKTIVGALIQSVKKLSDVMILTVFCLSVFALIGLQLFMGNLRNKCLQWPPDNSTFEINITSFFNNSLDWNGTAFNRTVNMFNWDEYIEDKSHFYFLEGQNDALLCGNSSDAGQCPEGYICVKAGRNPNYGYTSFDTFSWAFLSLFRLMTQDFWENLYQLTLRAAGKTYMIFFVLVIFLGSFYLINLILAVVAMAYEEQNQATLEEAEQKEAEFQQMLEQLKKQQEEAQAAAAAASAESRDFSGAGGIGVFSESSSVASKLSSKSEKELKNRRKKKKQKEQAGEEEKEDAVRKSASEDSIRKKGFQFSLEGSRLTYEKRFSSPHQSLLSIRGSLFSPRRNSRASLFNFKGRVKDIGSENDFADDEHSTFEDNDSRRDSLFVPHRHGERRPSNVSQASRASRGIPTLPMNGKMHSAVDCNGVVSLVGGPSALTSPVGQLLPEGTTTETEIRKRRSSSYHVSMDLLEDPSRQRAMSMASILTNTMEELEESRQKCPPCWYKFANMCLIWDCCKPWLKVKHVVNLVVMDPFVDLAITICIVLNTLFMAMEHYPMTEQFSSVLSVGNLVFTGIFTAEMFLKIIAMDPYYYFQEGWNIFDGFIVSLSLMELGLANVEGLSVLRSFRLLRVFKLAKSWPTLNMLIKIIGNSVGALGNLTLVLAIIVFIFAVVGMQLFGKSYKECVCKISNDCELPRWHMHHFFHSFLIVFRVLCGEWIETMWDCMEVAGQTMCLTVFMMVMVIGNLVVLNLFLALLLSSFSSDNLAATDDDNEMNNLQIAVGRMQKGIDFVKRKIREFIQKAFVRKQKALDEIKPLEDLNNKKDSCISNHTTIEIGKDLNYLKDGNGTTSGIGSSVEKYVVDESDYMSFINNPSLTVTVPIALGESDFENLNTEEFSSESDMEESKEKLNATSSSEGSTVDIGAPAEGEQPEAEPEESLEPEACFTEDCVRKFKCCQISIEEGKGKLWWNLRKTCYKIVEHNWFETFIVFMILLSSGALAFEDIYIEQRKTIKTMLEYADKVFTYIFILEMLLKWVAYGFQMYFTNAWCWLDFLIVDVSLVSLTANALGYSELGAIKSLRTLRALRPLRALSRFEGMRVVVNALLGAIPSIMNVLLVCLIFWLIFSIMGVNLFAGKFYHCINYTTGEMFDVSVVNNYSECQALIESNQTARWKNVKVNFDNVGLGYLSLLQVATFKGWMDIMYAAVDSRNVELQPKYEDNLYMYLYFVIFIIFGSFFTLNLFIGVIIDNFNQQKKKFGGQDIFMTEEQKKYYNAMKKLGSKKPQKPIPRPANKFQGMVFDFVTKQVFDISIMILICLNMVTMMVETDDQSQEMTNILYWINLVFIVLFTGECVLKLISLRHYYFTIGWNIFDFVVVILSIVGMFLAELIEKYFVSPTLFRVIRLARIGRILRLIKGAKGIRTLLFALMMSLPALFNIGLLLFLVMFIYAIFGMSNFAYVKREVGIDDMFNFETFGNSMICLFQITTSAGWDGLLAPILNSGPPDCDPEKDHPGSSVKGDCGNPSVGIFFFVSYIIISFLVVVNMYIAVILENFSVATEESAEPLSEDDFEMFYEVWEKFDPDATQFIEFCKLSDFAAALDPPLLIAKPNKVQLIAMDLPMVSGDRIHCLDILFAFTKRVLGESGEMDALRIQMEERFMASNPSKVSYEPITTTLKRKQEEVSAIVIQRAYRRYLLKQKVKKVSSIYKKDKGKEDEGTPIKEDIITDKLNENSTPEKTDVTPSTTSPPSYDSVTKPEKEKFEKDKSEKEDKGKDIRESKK
UniProt Q99828, sequence (whole entry, looked up): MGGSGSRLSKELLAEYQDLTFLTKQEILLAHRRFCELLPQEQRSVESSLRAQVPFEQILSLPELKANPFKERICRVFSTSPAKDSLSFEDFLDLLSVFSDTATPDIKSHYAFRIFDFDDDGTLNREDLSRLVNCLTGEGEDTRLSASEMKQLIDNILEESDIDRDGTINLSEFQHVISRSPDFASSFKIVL
UniProt P62136, sequence (whole entry, looked up): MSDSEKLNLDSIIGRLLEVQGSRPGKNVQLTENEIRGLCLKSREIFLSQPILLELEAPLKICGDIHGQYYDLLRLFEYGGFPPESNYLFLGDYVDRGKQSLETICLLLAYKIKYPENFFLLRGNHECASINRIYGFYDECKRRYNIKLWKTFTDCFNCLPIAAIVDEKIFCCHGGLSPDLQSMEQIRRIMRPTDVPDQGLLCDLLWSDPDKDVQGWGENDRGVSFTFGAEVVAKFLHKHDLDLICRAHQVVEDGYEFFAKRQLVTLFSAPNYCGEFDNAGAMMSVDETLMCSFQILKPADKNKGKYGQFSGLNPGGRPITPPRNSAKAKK

Under “subunit exchange rate”, `B1 (CRYBB1 1-148)` is recorded as 0.0143 ± 0.0045 min⁻¹ (CRYBA1, Alexa Fluor 488 label (Homo sapiens, UniProt P05813); FRET; pH 7.5, 37 °C, 100 mM NaCl).
With `B2 (Tbx1)` the reporter activation was 4 fold activation (PITX2 1-271 (Homo sapiens, UniProt Q99697-3); p21 promoter luciferase; LS-8; together with: PITX2A; higher = more activation).
For `B3 (MIF4GD)`, the koff was 0.00238 s⁻¹ (SLBP, phosphorylated, multiple sites (Homo sapiens, UniProt Q14493); SPR; pH 7.4, 25 °C, NaCl 150 mM).
Under “relative microtubule nucleation”, `NME7 (Homo sapiens, UniProt Q9Y5B8-1)` is recorded as 2.5 fold (TUBG1/TUBGCP2/TUBGCP3/TUBGCP4/TUBGCP5/TUBGCP6 γ-tubulin ring complex (Homo sapiens); microtubule nucleation, activator; reference: γTuRC alone, higher = more nucleation).
With `CTNNB1, tyrosine phosphorylated (Mus musculus, UniProt Q02248)` the relative ratio was 1.2 (Cdh1 (Mus musculus); co-IP; keratinocytes, lysate; together with: tyrosine phosphatase 25 mU; reference: phosphatase with inhibitors, lower = less molecule bound).
For `thyrotropin-releasing hormone, pyroGlu, C-terminal amide (Gallus gallus)`, the EC50 was 0.3 nM (protein (Gallus gallus, UniProt O93603); cAMP/PKA signaling, CRE luciferase reporter, agonist; HEK 293).
With `EGF mature (Mus musculus)` the specific binding was 405 cpm/well (Egfr whole, on cells (Rattus norvegicus); radioligand binding; NRK; 0.3 nM, not TGF-beta treated, together with: platelet TGF-beta).
`Reck R69A/P71A/Y73A (Mus musculus)`: “Wnt signalling activity” 50% (Gpr124; luciferase reporter; together with: Wnt7a; reference: wild-type Reck, higher = more activity).
`RQIKIWFQNRREDGGSFWYGAMKALYG (designed peptide)` gave an IC50 of > 10000 nM (CIB1 (Homo sapiens, UniProt Q99828); competition with peptide, competitor, TR-FRET; peptide).
Under “inverse agonist EC50”, `RCVRLHESCLGQQVPCCDPCATCYCRFFNAFCYCRKLGTAMNPCSRT (AGRP 86-132 (Homo sapiens, UniProt O00253); sequence looked up)` is recorded as 30 nM (MC4R D189N (Homo sapiens, UniProt P32245); cAMP, inverse agonist, AlphaScreen; HEK293; apparent).
For `Spitz EGF domain, Alexa Fluor 488 label (Drosophila melanogaster)`, “Kd of lower-affinity sites” read 1300 nM (Egfr extracellular region 31-868 (Drosophila melanogaster, UniProt P04412); fluorescent ligand binding assay; two independent site classes, together with: biotinylated receptor).
`CBFB/MYH11 fusion (Homo sapiens)` gave an RUNX1 occupancy of 8 fold (RUNX1 (Homo sapiens, UniProt Q01196); ChIP; ME-1; 6 hours h, RUNX3 promoter, together with: AI-10-49 1 µM; reference: DMSO, higher = more occupancy).
`CSF2 residues 3-end (Homo sapiens)` — result for “lower KD of low-affinity site”: 83% (CSF2RB (Homo sapiens, UniProt P32927); radioligand binding; TF-1; reference: full-length GM-CSF, higher = tighter binding).
`TIMP2 N-terminal domain S4E/V6R/V18M/I35V/N38Q/S68N/V71N/H97R` has a Ki of 2.43 nM (MMP9 catalytic domain, no fibronectin 107-215 (Homo sapiens, UniProt P14780); fluorogenic substrate cleavage, inhibitor, enzyme inhibition assay; apparent).
For `Ctnnb1 (Mus musculus, UniProt Q02248)`, the E-cadherin coprecipitated was 0.18 a.u. (Cdh1 157-884 (Mus musculus, UniProt P09803); co-IP; HEK293T; 1.0 µg; reference: control, higher = more E-cadherin).
`CGA/LHB (Equus caballus)` has an EC50 of 0.0217 µg/mL (LHCGR M410T (eel); cAMP response, agonist, HTRF; CHO-K1; 30 min, room temperature).
Under “relative PP1 amount”, `PPP1CA (Homo sapiens, UniProt P62136)` is recorded as 48% (KCNT1 (Rattus norvegicus, UniProt Q9Z258-1); co-IP; HEK293T, lysate; in cells; reference: Slack alone, higher = more PP1).
The affinity decrease of `PGYPNGLLSGDEDFSSIADMDASALLSQISS (RELA 521-551 L523Y/F542A (Homo sapiens, UniProt Q04206); sequence looked up)` is reported as > 100 fold (TFB1 1-115 (Saccharomyces cerevisiae, UniProt P32776); ITC; peptide; 25 °C; reference: wild-type p65TA1, higher = weaker binding).
Under “GTP hydrolysis rate”, `RASA1 minimal catalytic domain` is recorded as 0.00194 s⁻¹ (HRAS 1-166, S-glutathionylated Cys118 (Homo sapiens, UniProt P01112); GAP-mediated GTP hydrolysis; 25 °C).
For `B4 (LEMD3 755-911)`, the ΔH was -8.4 kcal/mol (SMAD2 186-467 S-to-E phosphomimetic (Homo sapiens, UniProt Q15796); ITC; 20 °C).
The speed of `BicD coiled-coil domain 1 (Drosophila melanogaster)` is reported as 0.4 µm/s (DYNC1H1/DYNC1I2/DYNC1LI2/DYNLT1/DYNLRB1/DYNLL1 (Homo sapiens); single-molecule TIRF).
The unitary conductance of `B5 (Kcnt2 Q276E/Y279E)` is reported as 324 pS (Kcnt1 (Rattus norvegicus, UniProt Q9Z258-1); patch clamp; Xenopus oocytes).
`GOLGA3 (Homo sapiens, UniProt Q08378)` — result for “RIIβ-FLAG protein level”: 0.6 (PRKAR2B (Homo sapiens, UniProt P31323); Western blot densitometry; rescue by overexpression, together with: st-Ht31; higher = more protein).
For `ANK2 fragment (Homo sapiens)`, the koff was 0.0032 s⁻¹ (SCN2A 1080-1203 E1111A, CK2 phosphorylated (UniProt P04775); SPR; pH 7.4, 25 °C, NaCl 150 mM).
For `dinB (Escherichia coli, UniProt Q47155)`, the koff was 0.00713 s⁻¹ (dnaN 1-366 (Escherichia coli, UniProt P0A988); SPR; pH 7.4, NaCl 150 mM).
`B6 (CSF1 33-496)` gave a kon of 1.3e+07 M⁻¹ s⁻¹ (CSF1R Fc fusion D1-D5 M149K (Homo sapiens, UniProt P07333); SPR; pH 7.4, NaCl 0.15 M).
Under “activation time constant”, `B7 (Calhm3)` is recorded as 100 ms (Calhm1 (Mus musculus, UniProt D3Z291); voltage-gated currents; Xenopus oocytes; higher = slower activation).
`B8` — result for “relative iron level”: 7 fold (Plaur (Mus musculus, UniProt P35456); iron analysis; orthotopic PANC02 tumours; 24 hours, in vivo, i.p. delivery; reference: non-targeted BSA-PEG-IONPs, higher = more nanoparticle in tumour).
For `CCL3 (Homo sapiens, UniProt P10147)`, the EC50 was 6 nM (CCR5 (Homo sapiens, UniProt P51681); β-arrestin recruitment, agonist, Tango reporter assay; U2OS).

Excerpt of the above:
`B6 (CSF1 33-496)` gave a kon of 1.3e+07 M⁻¹ s⁻¹ (CSF1R Fc fusion D1-D5 M149K (Homo sapiens, UniProt P07333); SPR; pH 7.4, NaCl 0.15 M).
For `ANK2 fragment (Homo sapiens)`, the koff was 0.0032 s⁻¹ (SCN2A 1080-1203 E1111A, CK2 phosphorylated (UniProt P04775); SPR; pH 7.4, 25 °C, NaCl 150 mM).
For `Ctnnb1 (Mus musculus, UniProt Q02248)`, the E-cadherin coprecipitated was 0.18 a.u. (Cdh1 157-884 (Mus musculus, UniProt P09803); co-IP; HEK293T; 1.0 µg; reference: control, higher = more E-cadherin).
Under “activation time constant”, `B7 (Calhm3)` is recorded as 100 ms (Calhm1 (Mus musculus, UniProt D3Z291); voltage-gated currents; Xenopus oocytes; higher = slower activation).
